# Published values collected from several papers.
# Protocols differ between the studies behind these lines. “And” joins repeats or separate records; there may be more than shown. Numbers after ± are the reported error.
# UniProt Q9NZP8, sequence (whole entry, looked up): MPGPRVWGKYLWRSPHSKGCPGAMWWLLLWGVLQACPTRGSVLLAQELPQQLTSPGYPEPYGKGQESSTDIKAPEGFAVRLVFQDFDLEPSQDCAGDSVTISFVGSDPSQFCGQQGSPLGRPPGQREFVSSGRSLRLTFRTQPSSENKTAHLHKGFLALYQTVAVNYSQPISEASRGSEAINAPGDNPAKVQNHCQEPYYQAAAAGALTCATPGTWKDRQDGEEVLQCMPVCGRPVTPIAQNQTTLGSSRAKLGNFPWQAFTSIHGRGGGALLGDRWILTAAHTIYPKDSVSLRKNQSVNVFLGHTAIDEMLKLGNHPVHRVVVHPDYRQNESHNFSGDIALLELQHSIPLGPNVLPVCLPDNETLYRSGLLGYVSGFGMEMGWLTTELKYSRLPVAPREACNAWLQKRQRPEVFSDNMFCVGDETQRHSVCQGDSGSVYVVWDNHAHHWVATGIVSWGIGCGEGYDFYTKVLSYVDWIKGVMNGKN
# UniProt Q9HC35, sequence (whole entry, looked up): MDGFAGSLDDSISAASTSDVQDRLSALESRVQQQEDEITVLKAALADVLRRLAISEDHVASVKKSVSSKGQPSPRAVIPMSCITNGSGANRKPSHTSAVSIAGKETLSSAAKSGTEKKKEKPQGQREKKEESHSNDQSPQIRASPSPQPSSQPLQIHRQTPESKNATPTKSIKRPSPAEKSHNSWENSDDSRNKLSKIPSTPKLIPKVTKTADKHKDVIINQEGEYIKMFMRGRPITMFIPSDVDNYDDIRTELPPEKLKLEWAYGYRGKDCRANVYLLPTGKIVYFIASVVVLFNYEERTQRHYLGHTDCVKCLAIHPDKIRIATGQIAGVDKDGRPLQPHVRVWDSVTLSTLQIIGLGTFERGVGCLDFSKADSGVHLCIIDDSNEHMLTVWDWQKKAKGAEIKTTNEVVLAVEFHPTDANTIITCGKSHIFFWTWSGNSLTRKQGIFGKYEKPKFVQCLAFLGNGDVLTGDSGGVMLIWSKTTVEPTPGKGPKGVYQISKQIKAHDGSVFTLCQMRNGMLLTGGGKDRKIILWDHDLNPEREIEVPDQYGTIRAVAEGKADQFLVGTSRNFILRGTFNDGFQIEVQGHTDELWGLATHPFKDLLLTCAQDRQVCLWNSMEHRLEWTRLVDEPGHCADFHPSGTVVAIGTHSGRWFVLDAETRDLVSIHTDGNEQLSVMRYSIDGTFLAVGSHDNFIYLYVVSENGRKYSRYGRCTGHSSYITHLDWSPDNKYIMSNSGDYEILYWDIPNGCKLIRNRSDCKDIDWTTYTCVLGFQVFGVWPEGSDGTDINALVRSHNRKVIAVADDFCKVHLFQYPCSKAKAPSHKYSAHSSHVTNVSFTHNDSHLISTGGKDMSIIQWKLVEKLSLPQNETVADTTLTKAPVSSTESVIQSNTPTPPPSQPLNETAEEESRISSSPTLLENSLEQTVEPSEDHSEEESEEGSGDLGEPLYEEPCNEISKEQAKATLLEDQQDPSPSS
# UniProt Q9UPE1, sequence (whole entry, looked up): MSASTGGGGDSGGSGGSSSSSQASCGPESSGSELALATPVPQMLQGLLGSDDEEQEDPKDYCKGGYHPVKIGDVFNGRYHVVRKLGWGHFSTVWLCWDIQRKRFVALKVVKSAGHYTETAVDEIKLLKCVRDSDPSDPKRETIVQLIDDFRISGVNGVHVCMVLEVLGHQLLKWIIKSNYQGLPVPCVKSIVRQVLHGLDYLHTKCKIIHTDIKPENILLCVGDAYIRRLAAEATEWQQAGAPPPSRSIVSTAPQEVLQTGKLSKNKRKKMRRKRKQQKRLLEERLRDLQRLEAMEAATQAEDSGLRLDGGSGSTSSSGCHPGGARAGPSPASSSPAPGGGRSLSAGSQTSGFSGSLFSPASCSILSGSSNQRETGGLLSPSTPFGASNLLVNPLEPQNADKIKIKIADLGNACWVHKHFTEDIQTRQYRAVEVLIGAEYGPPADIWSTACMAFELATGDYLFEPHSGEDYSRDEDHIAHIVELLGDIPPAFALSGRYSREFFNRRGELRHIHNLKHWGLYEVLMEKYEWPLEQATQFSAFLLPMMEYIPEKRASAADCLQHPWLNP
# UniProt Q9BZJ6, sequence (whole entry, looked up): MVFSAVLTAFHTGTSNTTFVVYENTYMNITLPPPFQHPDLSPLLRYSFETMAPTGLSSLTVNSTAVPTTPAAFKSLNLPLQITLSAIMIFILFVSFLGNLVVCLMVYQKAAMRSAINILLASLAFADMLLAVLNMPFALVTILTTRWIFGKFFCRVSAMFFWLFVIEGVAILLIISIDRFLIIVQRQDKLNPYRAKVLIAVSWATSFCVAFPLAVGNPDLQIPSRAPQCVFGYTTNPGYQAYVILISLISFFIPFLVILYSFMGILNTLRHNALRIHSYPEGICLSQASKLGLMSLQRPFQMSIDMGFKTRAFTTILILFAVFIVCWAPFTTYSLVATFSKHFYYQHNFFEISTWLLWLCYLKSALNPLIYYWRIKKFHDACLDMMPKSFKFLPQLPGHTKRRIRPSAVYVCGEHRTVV
SMILES,target or system,test,system,setting,scale,measurement,value
CCCCCCC(C)(C)c1cc(O)c2c(c1)OC(C)(C)[C@@H]1CC=C(C(=O)O)C[C@@H]21,African green monkey cells,,,5 days,,CC50,21.4 µM
Cc1ccccc1NC(=O)Nc1ccc(CC(=O)N[C@@H](CCCCNC(=O)/C=C/c2cccnc2)C(=O)N[C@@H](CCCC(=O)O)C(=O)NC2(C(=O)NCCOCCOCCOCCOCC(=O)N[C@@H](CCCCNC(=S)Nc3ccc(CCCN(CCN4CCN(CP(=O)(O)O)CCN(CP(=O)(O)O)CC4)CC(=O)O)cc3)C(N)=O)CCCCC2)cc1 [gallium-68 labelled],,,"C57BL/6 mice with B16-F10 tumour, tumour, spleen, thymus, bone",together with: unlabelled LLP2A-PEG4 100 µg co-injected,,uptake,decreased
N=C(N)c1ccc(C=C2c3ccccc3-c3ccccc32)cc1,African green monkey cells,,,5 days,,CC50,2.92 µM
CN1CC[C@]23c4c5ccc(O[C@@H]6O[C@H](C(=O)O)[C@@H](O)[C@H](O)[C@H]6O)c4O[C@H]2[C@@H](O)C=C[C@H]3[C@H]1C5,,,rat whole blood,"500 nM, 4 h, room temperature",,stability bias,-12.8%
CCC1(c2ccccc2)C(=O)NC(=O)NC1=O,CYP2B6,"induction, measured: CYP2B6 mRNA",primary human hepatocytes,"NG, 3 days, 0.1% DMSO",relative to: vehicle,mRNA level,13.8 to 105 fold
COc1ccc(-n2nc(C(C)=O)s/c2=N\N=C(/C)c2ccc(NC(C)=O)cc2)cc1,WI-38,,,"0.312 µM, 24 (unit not given)",,viability,3.68%
C[C@H]1CN(c2n[nH]c3nc(N[C@H]4CC[C@H](NS(=O)(=O)CCC(F)(F)F)CC4)ncc23)CCO1,"Echinoderm microtubule-associated protein-like 4 (Homo sapiens, UniProt Q9HC35)","Kinobeads competition, measured: EML4",,"0.16 µM, unit not given",relative to: vehicle,remaining binding,1.07
CN1CC[C@@H](c2c(O)cc(O)c3c(=O)cc(-c4ccc(C(F)(F)F)cc4Cl)oc23)[C@@H]1CO,,measured: Sepsis,B-cell malignancies,"oral, 100 mg, intermittent dosing",,patients with adverse event,0%
CCc1ccc(CC/C=C/c2ccc3c(c2)C(=O)CC3)cc1,,,"Sprague-Dawley rat, male","oral, 120 mg/kg/day, 14 days",,GGT serum activity,1.33 U/L
Cc1cc(C(=O)NC(C)(C)COc2cccc3c2C(N)=NS(=O)(=O)N3)cc(C)n1,Salmonella typhimurium,"Ames test, initial",TA100,5.00 µg/plate,relative to: solvent control,revertant ratio,1.1
CN1CCC(OC(=O)C(Oc2ccc(Cl)cc2)Oc2ccc(Cl)cc2)CC1,African green monkey cells,,,5 days,,CC50,38 µM
O=[N+]([O-])c1ccc(N2CCN(CCC(O)c3ccc(F)cc3)CC2)c(C(F)(F)F)c1 (stereo not drawn),Salmonella typhimurium,SOS/umu test,TA1535/pSK1002,"0.001 mg/mL, 4 h, without S9, lower range",,survival,108%
Clc1ccc(C(c2ccccc2)N2CCN(C/C=C/c3ccccc3)CC2)cc1 (stereo not drawn),African green monkey cells,,,5 days,,CC50,21.9 µM
O=c1ccc2ccccc2o1,NHEK,cell count,,"concentration not given, 24 h, AhR translocation panel",,chance response,0.04%
C[C@]1(CO)Cc2ncn(-c3ccc(C#N)c(Cl)c3)c2C(=O)O1,,,"human, Japanese, plasma","1 days, multiple rising dose, range of means",,apparent terminal t1/2,5.4 to 6 h
C[C@@H](O)[C@@H](CO)NC(=O)[C@@H](CCCNC(=N)N)NC(=O)[C@@H]1CCCN1C(=O)[C@@H]1CSSC[C@H](NC(=O)[C@H](Cc2ccccc2)NC(=O)CN2CCN(CC(=O)O)CCN(CC(=O)O)CCN(CC(=O)O)CC2)C(=O)N[C@@H](Cc2ccc(O)cc2)C(=O)N[C@@H](Cc2ccccc2)C(=O)N[C@@H](CCC(N)=O)C(=O)N[C@@H](CC(N)=O)C(=O)N1 [gallium-68 labelled],,,"Wistar rat, healthy, Parotid gland","intravenous, 8 MBq, 120 min",,tissue uptake,0.08 %ID/g
COc1cc(Nc2ncc(F)c(Nc3ccc4c(n3)NC(=O)C(C)(C)O4)n2)cc(OC)c1OC,imidazoline I2 receptor,,peripheral,,,IC50,> 10 µM
COc1ccccc1OCCNCC(O)COc1cccc2[nH]c3ccccc3c12 (stereo not drawn),African green monkey cells,,,5 days,,CC50,17 µM
O=C1c2c(O)c(=O)ccn2N([C@@H]2c3ccccc3SCc3c2ccc(F)c3F)[C@@H]2COCCN12,,,"BALB/c mice, plasma","oral, 50 mg/kg baloxavir marboxil, 6 h",,plasma concentration,102 ng/mL
CN1[C@H]2CC[C@@H]1[C@@H](C(=O)O)[C@@H](OC(=O)c1ccccc1)C2,,,"rat, whole blood","1000 nM, 4 months, -80 °C, long-term storage",,stability bias,9.98%
O=C(c1ccc(F)c(F)c1Nc1ccc(I)cc1F)N1CC(O)([C@@H]2CCCCN2)C1,,,patients aged sample A to sample B years,"oral, dose not given",,treatment-related serious AE,7%
CC(C)CC(=O)OC[C@H]1O[C@@](C#N)(c2ccc3c(N)ncnn23)[C@H](O)[C@@H]1O,"Cytochrome P450 2C9 (CYP2C9, Homo sapiens, UniProt P11712)",metabolic stability,recombinant enzyme,1 µM,,intrinsic clearance,0 µL/min/pmol
CO[C@H]1C[C@@H]2CC[C@@H](C)[C@@](O)(O2)C(=O)C(=O)N2CCCC[C@H]2C(=O)O[C@H]([C@H](C)C[C@@H]2CC[C@@H](OC(=O)NCCOCCOCCOCCOCCOCCOCCOCCOCCC(=O)N3CCc4cc(Cn5nc(-c6ccc7oc(N)nc7c6)c6c(N)ncnc65)ccc4C3)[C@H](OC)C2)C[C@@H](O)[C@H](C)/C=C(\C)[C@@H](O)[C@@H](OC)C(=O)[C@H](C)C[C@H](C)/C=C/C=C/C=C/1C,,measured: treatment-related AEs,patients with advanced solid tumours,"intravenous, dose not given, grade ≥3, all doses",,patients with AE,0%
O=C(c1ccc(Cl)cc1)N1CCN2C(=O)N(OC(=O)N3CCOc4ccccc43)C(=O)C2C1 (stereo not drawn),"Complement C1r subcomponent-like protein (C1RL, Homo sapiens, UniProt Q9NZP8)",MS-based ABPP,SW-620 conditioned medium,"10 µM, 1 h, 37 °C","relative to: compound over DMSO, lower = more inhibition",peptide ratio,1.03 and 1.12 and 1.05
COc1ccc(N2C(=O)N(c3c(C)cccc3Cl)Cc3cnc(Nc4ccc(C5CCN(C)CC5)cc4OC)nc32)nc1,"SRPK3 (Homo sapiens, UniProt Q9UPE1)","kinase activity, inhibitor",,"0.5 µM, MSSK1",,inhibition,-0.375%
CC1=C(/C=C/C(C)=C/C=C/C(C)=C/C(=O)Nc2ccc(O)cc2)C(C)(C)CCC1,African green monkey cells,,,5 days,,CC50,5.01 µM
Oc1ccc2c3c1O[C@H]1[C@@H](O)CC[C@@]4(O)[C@@H](C2)N(CC2CCC2)CC[C@]314,"Probable G-protein coupled receptor 63 (GPR63, Homo sapiens, UniProt Q9BZJ6)","β-arrestin recruitment, TANGO luminescence, measured: GPR63",,concentration not given,relative to: basal luminescence,log2 fold change,1.1
COC(=O)[C@H]1[C@@H](OC(=O)c2ccccc2)C[C@@H]2CC[C@H]1N2C,,,"rat, whole blood","500 nM, 4 months, -80 °C, long-term storage",,stability bias,4.42%
CC[C@H](C)[C@H](NC(=O)[C@H](Cc1ccccc1)NC(=O)[C@H](CCC(=O)O)NC(=O)[C@H](CCCNC(=N)N)NC(=O)[C@H](C)NC(=O)[C@H](C)NC(=O)[C@H](CCC(N)=O)NC(=O)[C@H](CCC(=O)O)NC(=O)[C@H](CCC(=O)O)NC(=O)[C@H](CC(C)C)NC(=O)[C@H](Cc1ccc(O)cc1)NC(=O)[C@H](CO)NC(=O)[C@H](CO)NC(=O)[C@@H](NC(=O)[C@H](CC(=O)O)NC(=O)[C@H](CO)NC(=O)[C@@H](NC(=O)[C@H](Cc1ccccc1)NC(=O)[C@@H](NC(=O)CNC(=O)[C@H](CCC(=O)O)NC(=O)[C@H](C)NC(=O)CCc1c[nH]cn1)[C@@H](C)O)[C@@H](C)O)C(C)C)C(=O)N[C@@H](C)C(=O)N[C@@H](Cc1c[nH]c2ccccc12)C(=O)N[C@@H](CC(C)C)C(=O)N[C@H](C(=O)N[C@@H](CCCNC(=N)N)C(=O)NCC(=O)N[C@@H](CCCNC(=N)N)C(=O)N[C@@H](CCCCNC(=O)COCCOCCNC(=O)COCCOCCNC(=O)CC[C@H](NC(=O)CCCCCCCCCCCCCCCCC(=O)O)C(=O)O)C(=O)NCC(=O)NCC(=O)N[C@@H](CO)C(=O)N[C@@H](CCCCNc1c(NCCCCCN(O)C(=O)CCC(=O)NCCCCCN(O)C(=O)CCC(=O)NCCCCCN(O)C(C)=O)c(=O)c1=O)C(=O)O)C(C)C [zirconium-89 labelled],,ex vivo gamma counting,"rat, brain","subcutaneous, 3 nmol/kg, 4 h, together with: [89Zr]-labelled peptide",,tissue uptake,0.03 %ID/g
CC(=O)O[C@H]1CC[C@@]2(C)C(=CC[C@@H]3[C@@H]2CC[C@]2(C)C(c4cccnc4)=CC[C@@H]32)C1,African green monkey cells,,,5 days,,CC50,9.89 µM
N=C(N)NCCC[C@@H]1NC(=O)[C@H](CCCCNC(=O)c2ccc(CNC34CNCCNCC(N)(CNCCNC3)CNCCNC4)cc2)NC(=O)[C@@H](Cc2ccc(O)cc2)NC(=O)[C@H](CC(=O)O)NC(=O)CNC1=O [copper-64 labelled],,microPET imaging,"athymic nude mice, male, PC-3 xenograft, PC-3 tumour","intravenous, 0.2 nmol, 7.4 MBq, 24 h",,tumour uptake,0.5 ± 0.08 %ID/g
COc1cc2c(Oc3ccc4[nH]c(C)cc4c3F)ccnc2cc1OCC1(N)CC1,,,paediatric recurrent refractory sarcoma,8 mg,,grade 3 abdominal distension,0%
CC(C)C[C@@H]1NC(=O)[C@H](CC(C)C)NC(=O)[C@H](Cc2c[nH]c3ccccc23)NC(=O)[C@H](CO)NC(=O)[C@H](Cc2c[nH]c3ccccc23)NC(=O)[C@@H]2CCCN2C(=O)[C@H](CC(C)C)NC(=O)[C@H](Cc2c[nH]cn2)NC(=O)[C@@H]2CCCN2C(=O)[C@H](CC(N)=O)NC(=O)[C@H](C)NC(=O)[C@H](Cc2ccc(O)cc2)NC(=O)[C@H](CS)NC(=O)[C@H](CCCCNC(=O)CN2CCN(CC(=O)O)CCN(CC(=O)O)CCN(CC(=O)O)CC2)NC1=O [lutetium-177 labelled],,,"BALB/c mice female 4T1 tumour, 4T1 tumour","intravenous, 3.7 MBq, 96 h, unblocked",,tumour uptake,4.79 %ID
CC(=O)O[C@H]1C=C[C@H]2[C@H]3Cc4ccc(O)c5c4[C@@]2(CCN3C)[C@H]1O5,,,rat whole blood,"500 nM, 4 freeze-thaw cycles",,stability bias,4.25%
CC[C@H](C)[C@@H]1NC(=O)[C@@H]2CCCN2C(=O)[C@H](CC(C)C)NC(=O)[C@H](CC(C)C)NC(=O)CNC(=O)[C@@H](NC(=O)[C@@H](NC(=O)[C@H](CC(=O)O)NC(=O)CNC(=O)[C@@H](NC(=O)[C@H](C)NC(=O)CNC(=O)[C@H](CCCCN)NC(=O)[C@H](CC(C)C)NC(=O)[C@H](CC(C)C)NC(=O)[C@H](CCCCN)NC(=O)CNC(=O)[C@@H](NC(=O)[C@@H](N)CC(C)C)C(C)C)C(C)C)C(C)C)CSSC[C@@H](C(=O)O)NC1=O,,"RNA-seq, measured: Pirb mRNA","mouse traumatic brain injury, frontal cortex and hippocampus",dose not given,relative to: TBI plus compound vs TBI,log2 fold change,-2.89
CN1CC[C@]23c4c5ccc(O)c4O[C@H]2[C@@H](O[C@@H]2O[C@H](C(=O)O)[C@@H](O)[C@H](O)[C@H]2O)C=C[C@H]3[C@H]1C5,,,rat whole blood,"500 nM, 4 h, room temperature",,stability bias,-5.3%
CC[C@H](C)[C@H](NC(=O)[C@H](C)NC(=O)[C@H](CCCCN)NC(=O)[C@H](CC(C)C)NC(=O)[C@H](C)NC(=O)[C@@H](NC(=O)[C@H](Cc1c[nH]cn1)NC(=O)[C@H](CC(C)C)NC(=O)[C@@H](NC(=O)[C@@H](NC(=O)[C@H](CCCCN)NC(=O)[C@H](C)NC(=O)[C@H](C)NC(=O)[C@H](CO)NC(=O)[C@H](CCCCN)NC(=O)[C@H](Cc1ccccc1)NC(=O)[C@@H](NC(=O)[C@H](CCCCN)NC(=O)[C@H](CC(C)C)NC(=O)[C@H](Cc1ccccc1)NC(=O)[C@H](CO)NC(=O)[C@H](CCCCN)NC(=O)[C@H](Cc1c[nH]c2ccccc12)NC(=O)[C@H](CCCCN)NC(C)=O)[C@@H](C)O)[C@@H](C)O)C(C)C)[C@@H](C)O)C(=O)N[C@@H](CO)C(=O)N[C@@H](CO)C(N)=O,Enterococcus faecalis,,ATCC 29212,,,MIC50,32 µg/mL
Cc1[nH]c(/C=C2\C(=O)Nc3ccccc32)c(C)c1CCC(=O)O,African green monkey cells,,,5 days,,CC50,> 25.1 µM
COC(=O)[C@H]1[C@@H](OC(=O)c2ccccc2)C[C@@H]2CC[C@H]1N2,,,"rat, whole blood","10 nM, 4 months, -80 °C, long-term storage",,stability bias,2.67%

# For quick reference, copied from above:
SMILES,target or system,test,system,setting,scale,measurement,value
CC(C)CC(=O)OC[C@H]1O[C@@](C#N)(c2ccc3c(N)ncnn23)[C@H](O)[C@@H]1O,"Cytochrome P450 2C9 (CYP2C9, Homo sapiens, UniProt P11712)",metabolic stability,recombinant enzyme,1 µM,,intrinsic clearance,0 µL/min/pmol
CN1CCC(OC(=O)C(Oc2ccc(Cl)cc2)Oc2ccc(Cl)cc2)CC1,African green monkey cells,,,5 days,,CC50,38 µM
